# Experimental data of several laboratories.
# Parts stem from different laboratories: compare values within a part only. Substitutions count along the parent as printed.

# Block 1
# Target: Sal-like protein 4, full length isoform B (SALL4, Homo sapiens, UniProt Q9UJQ4-2, residues 1-616)
# Technique: universal PBM
# Form: double-stranded DNA, one strand shown
# Medium: in vitro
# Concentration: not given
# Notes: 8-mer, flanks averaged, mean of replicates
# Reading: higher = stronger binding
# Target sequence (chain): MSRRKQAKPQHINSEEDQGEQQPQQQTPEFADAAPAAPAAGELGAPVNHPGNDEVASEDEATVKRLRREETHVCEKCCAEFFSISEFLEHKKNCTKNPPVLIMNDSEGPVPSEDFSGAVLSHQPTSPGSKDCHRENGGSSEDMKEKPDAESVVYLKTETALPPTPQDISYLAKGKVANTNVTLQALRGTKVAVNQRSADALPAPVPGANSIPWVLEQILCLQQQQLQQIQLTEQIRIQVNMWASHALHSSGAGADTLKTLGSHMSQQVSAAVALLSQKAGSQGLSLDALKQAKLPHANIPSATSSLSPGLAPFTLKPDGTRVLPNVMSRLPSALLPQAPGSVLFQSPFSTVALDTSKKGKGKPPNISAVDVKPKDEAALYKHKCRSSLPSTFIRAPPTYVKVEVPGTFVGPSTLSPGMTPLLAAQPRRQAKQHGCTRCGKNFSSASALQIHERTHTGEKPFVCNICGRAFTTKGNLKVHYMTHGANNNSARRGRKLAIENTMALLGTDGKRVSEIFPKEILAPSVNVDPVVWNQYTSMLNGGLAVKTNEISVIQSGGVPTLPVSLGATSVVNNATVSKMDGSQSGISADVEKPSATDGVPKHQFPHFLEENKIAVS
Sequence,E-score
TCATGGGA,-0.0463
CCTGGGCA,-0.255
TATGAAGA,0.301
ACAATCAC,0.074
AGAGGGAA,-0.0194
GGCCGTGA,-0.138

# Block 2
# Target: RING finger protein unkempt homolog, zinc fingers 1-6, SBP tag (UNK, Homo sapiens, UniProt Q9C0B0, residues 30-357)
# Sequence of UniProt Q9C0B0 (30-357, looked up): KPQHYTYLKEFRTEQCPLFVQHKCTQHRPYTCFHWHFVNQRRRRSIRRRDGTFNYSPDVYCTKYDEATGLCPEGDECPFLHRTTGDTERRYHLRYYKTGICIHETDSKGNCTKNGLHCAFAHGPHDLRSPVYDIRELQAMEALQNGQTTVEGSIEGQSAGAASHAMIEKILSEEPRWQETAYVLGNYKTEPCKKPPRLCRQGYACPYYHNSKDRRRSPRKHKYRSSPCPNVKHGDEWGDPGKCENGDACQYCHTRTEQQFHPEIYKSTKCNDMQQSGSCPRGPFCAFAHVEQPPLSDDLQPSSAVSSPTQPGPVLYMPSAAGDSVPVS
# Technique: RNA Bind-n-Seq
# Form: RNA
# Medium: in vitro
# Concentration: 100 nM
# Notes: RNA with constant flanks, vertebrate orthologous sites, ends assumed
# Reference: input RNA pool
# Reading: higher = stronger binding
# Shared flanks, not repeated: GGGAGUUCUACAGUCCGACGAUC … CAACAGAGGAUUGAGCAUCA
Sequence,bound/input enrichment [ratio]
AGUAGUUUUAAGCUUGUUUGCACAGUUCUUUUUUUCCAUUGGAAAUGGAAUUCAUUGCCUUAGGUCUUUUUAAAUAGUGUAUUAUUAUCGUUGGGGCUGGCUCUAUGCUUGAAAACCAGU,3.4
ACUUAAAGUCUUAAAGAAAUUAUACCGGAAUCCAGACAUUGAUUUUGCGGGGUCAGGCCAUUGGAUGGUGUUGCUGUGUUUAUUGUCUUGUUGUGUUUUUAAAAUCUGUGUACUUUGUCC,0.998
UUAUACGGGCCUCGCAGAGUUGAAGUAAUUGAAGAAGAAACUUCACAAUAACUGUCAUCUUAGUGUCUCUGACUAGGUGUGGAAUAAAUUUUGUUCGUUGAUCAUUUUCAAACCCCAGAA,0.619
GUGUCUAAGUUUGAAAGACACUUCCUUGUAAGGCACUUUGGCUCUUCACAGCUCAUGGUAUUUACAUAUCUAUUUUUUAAAAAACAGCAGUAUGAACUCAAAGGGGAGUCACUUGGCUUG,0.52
AAACGCAAUGGUUGAAGGCUCUGAGCUCAAAAAGAUUCGAUCUAACUCUAGGGUGUAUCACCGAUAUUUUCUUUUAGAUGCAGAUAUGCAGUCUCUGCGCUGGGAACCUUCAAAAAAGGA,0.283
CACAUCUGGUGAUAUUUGGCCUGGCCUUUCAGCUUAUGAUAAUAGCCCCAGAUCGCCCCAUAGUCCUUCACCAAUUGCUACACCACCUAGUCAGAGUUCAUCUUGCUCUGAUGCCCCCAU,1.09
UCCUCAACUUGUUCUAGCUUGUGAUCCUUCAAAGUUGGGCCAGGCAUUAGUGCUAGGUACUACAAAAUUGUAUUUUGCCGUUGCCACAGAUGAGAGAGCUAGGUAUUAAAAACAAUAAAG,0.656
ACUGUUGUUAAGCACUGUGUUCCAGACCGUGUCGGACUUAGUGUAACCUAGGAGAUUUUAUAGUUUUAUUUUAAUGAAAUCCUGAUUGACGCAGAGCAGUGGGAAGAGCAGUGUCUUUUA,5.22

# Block 3
# Target: CCNB1, cyclin fold, Cln2 fusion (human)
# Technique: yeast growth competition, sequencing
# Medium: yeast
# Notes: weak parent motif
# Reference: not given
# Reading: higher = stronger binding
# Starting sequence: RP1L1 docking peptide (human); TLGLGPLSFTLED
Variant,normalised enrichment score
TLGLGPLSFALED [T10A],0.0396
TLALGPLSFTLED [G3A],-0.0342
TLGLGPLSATLED [F9A],-0.156

# Further values, each from its own experiment
Substance,target,assay,system,setting,scale,quantity,result
"PhoQ, residues 284 288 289 292 302 303 DDMDFR","PhoP, residues 12 14 15 18 19 LHTVM (Escherichia coli, UniProt P23836)","Sort-seq, item: YFP reporter",E. coli,"PhoQ-PhoP variant library, together with: 10 µM Mg2+","reference: high Mg2+ state, higher = stronger signaling",fold induction,0.812

# Repeated from above (block 3):
Variant,normalised enrichment score
TLGLGPLSFALED [T10A],0.0396
TLALGPLSFTLED [G3A],-0.0342
TLGLGPLSATLED [F9A],-0.156
